Measurements from different studies.
Each line is one published result; not all experiments were run side by side. ± marks the error that the study gave.

| Structure (SMILES) | cell line | assay | setting | IC50 |
| --- | --- | --- | --- | --- |
| C1N2CN3CN1CP(C2)C3.CC(C)OC(=O)C(n1cccn1)n1cccn1.F[P-](F)(F)(F)(F)F.[Cu+] | U-1285 | cell viability, MTT |  | 21.3 ± 2.3 µM |
| COC(=O)C[C@](O)(CCCC(C)(C)OC(C)=O)C(=O)O[C@@H]1C(OC)=C[C@]23CCCN2CCc2cc4c(cc2[C@H]13)OCO4 | pancreatic cancer cell lines | cell viability, MTT | 72 h, average over cell lines | 0.0513 µM |
| C[C@H]1C(OCCCCCCC[P+](c2ccccc2)(c2ccccc2)c2ccccc2)O[C@@H]2O[C@@]3(C)CCC4[C@H](C)CCC1[C@]42OO3 (some centres unmarked) | OVCAR-3 | cell growth or viability, MTT | 72 h | 0.103 µM |
| CC[C@H](C)[C@H](NC(=O)CNC(=O)[C@H](C)NC(=O)[C@H](CCC(=O)O)NC(=O)[C@@H]1CCCN1C(=O)CNC(=O)[C@H](C)NC(=O)[C@H](CCC(=O)O)NC(=O)[C@H](C)NC(=O)[C@H](CC(=O)O)NC(=O)[C@H](C)NC(=O)[C@H](CCC(=O)O)NC(=O)[C@H](C)NC(=O)[C@H](CCC(=O)O)NC(=O)[C@@H]1CCCN1C(=O)[C@@H](N)CCC(=O)O)C(=O)NCC(=O)N[C@@H](C)C(=O)N[C@H](C(=O)N[C@@H](CC(C)C)C(=O)N[C@@H](CCCCN)C(=O)N[C@H](C(=O)N[C@@H](CC(C)C)C(=O)N[C@H](C(=O)N[C@H](C(=O)NCC(=O)N[C@@H](CC(C)C)C(=O)N1CCC[C@H]1C(=O)N[C@@H](C)C(=O)N[C@@H](CC(C)C)C(=O)N[C@H](C(=O)N[C@@H](CO)C(=O)N[C@@H](Cc1c[nH]c2ccccc12)C(=O)N[C@H](C(=O)N[C@@H](CCCCN)C(=O)N[C@@H](CCCNC(=N)N)C(=O)N[C@@H](CCCCN)C(=O)N[C@@H](CCCNC(=N)N)C(=O)N[C@@H](CCC(N)=O)C(=O)N[C@@H](CCC(N)=O)C(N)=O)[C@@H](C)CC)[C@@H](C)CC)[C@@H](C)O)[C@@H](C)O)C(C)C)C(C)C | MCF7 FAP-transfected | cell viability, MTT | 72 h | 26.8 ± 1.1 µM |
| Cc1nn(-c2ccccc2)c(O)c1C(c1ccc(F)cc1)c1c(C)nn(-c2ccccc2)c1O | various human cancer cell lines | cell growth, MTT |  | 5.45 to 18.3 µM |
| COC1=C[C@@H]2[C@@H]3Cc4ccc(OC)c(OC(=O)c5ccncn5)c4[C@]2(CCN3C)CC1=O | RAW264.7 | NO release, inhibitor, Griess | LPS-stimulated | 64 µM |
| Cc1cc(C)c(-n2ccn(-c3c(C)cc(C)cc3C)c2=[Se])c(C)c1.[Cl][Ag] | A-375 | cell growth or viability, MTT | 72 h | 0.7 µM |
| C[C@H]1C(OCCCCCCCCCCC[P+](c2ccccc2)(c2ccccc2)c2ccccc2)O[C@@H]2O[C@@]3(C)CCC4[C@H](C)CCC1[C@]42OO3 (some centres unmarked) | OVCAR-3 | cell growth or viability, MTT | 72 h | 0.117 µM |
| N.N.O=C([O][Pt]([OH])([Cl])[Cl])c1ccc(P(c2ccccc2)c2ccccc2)cc1.[Cl][Au] | CAKI-1 | cell growth or viability, resazurin | 72 h | 5 µM |
| COC(=O)C1CN1S(=O)(=O)c1ccccc1 (centres unmarked) | Caco-2 | cell growth or viability, SRB | 72 h | 3.37 µg/mL |
| CCCC[C@@H]1NC(=O)CN(S(C)(=O)=O)CCNC(=O)[C@H](CCCCN)NC(=O)[C@H](CC(C)C)NC(=O)[C@H](CCCCN)NC(=O)[C@H](CC(C)C)NC(=O)[C@H](CCCCN)NC(=O)COC[C@H]2CCCN2C(=O)[C@H](Cc2c[nH]c3ccccc23)NC(=O)[C@H](C)NC(=O)[C@H](C(C)C)NC(=O)[C@H](C)NC1=O | NCI-H929 | viability, TO-PRO-3 staining, flow cytometry |  | 11.5 µM |
| Cc1cc(C)c(N2CCN(c3c(C)cc(C)cc3C)C2=[Se])c(C)c1.[Cl][Ag] | H157 spheroids | acid phosphatase | 72 h, 3D spheroid | 23.4 ± 4.2 µM |
| CC(C)c1cccc(C(C)C)c1-n1c[n+](-c2c(C(C)C)cccc2C(C)C)c2c1-c1cccc3cccc-2c13.[Cl][Pd-]([Cl])[CH2]C=Cc1ccccc1 | PSN1 | cell growth or viability, MTT | 72 h | 7.2 µM |
| C[C@H](N)[C@@H](CCCCCCCCCCCCCCC(=O)CCCCCCC[C@@H](O)[C@@H](C)N)O[C@@H]1O[C@H](CO)[C@H](O)[C@H](O)[C@H]1O | HCC70 | cell growth or viability, resazurin | 96 h | 2.85 µM |
| CC[C@@H](C)[C@@H](NC(=O)[C@@H](CCCCN)NC(=O)[C@H](NC(=O)[C@@H](CCC(N)=O)NC(=O)[C@H](N)CCCNC(=N)N)[C@H](C)CC)C(=O)N[C@H](Cc1c[nH]c2ccccc12)C(=O)N[C@H](Cc1ccccc1)C(=O)N[C@H](CCC(N)=O)C(=O)N[C@H](CC(N)=O)C(=O)N[C@H](CCCNC(=N)N)C(=O)N[C@H](CCCNC(=N)N)C(=O)N[C@H](CCSC)C(=O)N[C@H](CCCCN)C(=O)N[C@H](Cc1c[nH]c2ccccc12)C(=O)N[C@H](CCCCN)C(=O)N[C@H](CCCCN)C(=O)N[C@H](CO)C(=O)N[C@H](Cc1c[nH]c2ccccc12)C(=O)N[C@@H](C(=O)N[C@H](Cc1c[nH]c2ccccc12)C(=O)N[C@H](CCC(=O)O)C(=O)N[C@H](CCCCN)C(=O)N[C@H](CCCCN)C(=O)N[C@H](CC(C)C)C(=O)N[C@H](CCC(=O)O)C(=O)N[C@@H](C(=O)N[C@H](C)C(=O)N[C@@H](C(=O)N[C@H](CC(N)=O)C(=O)N[C@H](CC(C)C)C(=O)N[C@H](C)C(=O)N[C@H](Cc1c[nH]c2ccccc12)C(=O)N[C@@H](C(=O)N[C@H](C)C(=O)NCC(=O)N[C@H](CC(N)=O)C(=O)N[C@H](CO)C(=O)N[C@H](CC(N)=O)C(=O)N[C@H](CCCCN)C(=O)N[C@H](Cc1c[nH]c2ccccc12)C(=O)N[C@@H](C(=O)N[C@H](Cc1c[nH]c2ccccc12)C(=O)N[C@H](CCCCN)C(=O)O)[C@H](C)O)[C@H](C)O)C(C)C)[C@H](C)O)[C@H](C)O | CLL patient PBMCs | cell death, PI staining flow cytometry | 90 min, room temperature, serum-free medium | 0.7 µM |
| COC(=O)CC[C@@H](NC(=O)[C@@H](Cc1ccc(OP(=O)(O)O)cc1)NC(=O)[C@@H](Cc1ccccc1)NC(=O)[C@@H](Cc1ccccc1)NC(=O)Cc1ccc2ccccc2c1)C(=O)OC | OVCAR-5 | cell growth or viability |  | > 200 µM |
| CCC(C)C1OC(=O)C(NC(=O)c2cccc(NC=O)c2O)C(C)OC(=O)C(C(C)CC)OC(=O)C(C)(C)C(=O)C(Cc2ccccc2)OC1=O (centres unmarked) | PC-9/GR gefitinib-resistant | cell viability, CCK-8 | 72 h | 0.0005 µM |
| O=C1CC2(C1)C(=O)[O][Pt]1([Cl])([O]C(=O)C(F)(F)F)([NH][C@@H]3CCCC[C@H]3[NH]1)[O]C2=O | BGC803 | cell growth or viability, MTT |  | 15 µM |
| COc1cc(-c2oc3cc(O)c(OC)c(O)c3c(=O)c2OC)ccc1O | human Neutrophil | elastase release, inhibitor |  | > 10 µM |
| CSCC[C@H](N)C(=O)N[C@@H](C)C(=O)N[C@@H](CCCNC(=N)N)C(=O)N[C@@H](CCCNC(=N)N)C(=O)N[C@@H](CC(=O)O)C(=O)N[C@@H](CCCCN)C(=O)N[C@H](C(=O)N[C@@H](CC(=O)O)C(=O)N[C@@H](Cc1ccccc1)C(=O)N[C@@H](C)C(=O)N[C@@H](CCCNC(=N)N)C(=O)N[C@@H](CCCNC(=N)N)C(=O)N[C@@H](CCCNC(=N)N)C(=O)N[C@@H](CCCNC(=N)N)C(=O)NCCCCCC(=O)NCCCCC(NC(=O)CCCCCNC(=O)[C@H](CCCNC(=N)N)NC(=O)[C@H](CCCNC(=N)N)NC(=O)[C@H](CCCNC(=N)N)NC(=O)[C@H](CCCNC(=N)N)NC(=O)[C@H](C)NC(=O)[C@H](Cc1ccccc1)NC(=O)[C@H](CC(=O)O)NC(=O)[C@@H](NC(=O)[C@H](CCCCN)NC(=O)[C@H](CC(=O)O)NC(=O)[C@H](CCCNC(=N)N)NC(=O)[C@H](CCCNC(=N)N)NC(=O)[C@H](C)NC(=O)[C@@H](N)CCSC)[C@@H](C)O)C(=O)NCCCCC(NC(=O)C(CCCCNC(=O)CCCCCNC(=O)[C@H](CCCNC(=N)N)NC(=O)[C@H](CCCNC(=N)N)NC(=O)[C@H](CCCNC(=N)N)NC(=O)[C@H](CCCNC(=N)N)NC(=O)[C@H](C)NC(=O)[C@H](Cc1ccccc1)NC(=O)[C@H](CC(=O)O)NC(=O)[C@@H](NC(=O)[C@H](CCCCN)NC(=O)[C@H](CC(=O)O)NC(=O)[C@H](CCCNC(=N)N)NC(=O)[C@H](CCCNC(=N)N)NC(=O)[C@H](C)NC(=O)[C@@H](N)CCSC)[C@@H](C)O)NC(=O)CCCCCNC(=O)[C@H](CCCNC(=N)N)NC(=O)[C@H](CCCNC(=N)N)NC(=O)[C@H](CCCNC(=N)N)NC(=O)[C@H](CCCNC(=N)N)NC(=O)[C@H](C)NC(=O)[C@H](Cc1ccccc1)NC(=O)[C@H](CC(=O)O)NC(=O)[C@@H](NC(=O)[C@H](CCCCN)NC(=O)[C@H](CC(=O)O)NC(=O)[C@H](CCCNC(=N)N)NC(=O)[C@H](CCCNC(=N)N)NC(=O)[C@H](C)NC(=O)[C@@H](N)CCSC)[C@@H](C)O)C(N)=O)[C@@H](C)O (some centres unmarked) | BMMs from C57BL/6 mice | osteoclast differentiation | 3 days, with: RANKL | 0.16 µM |
| C[C@@H]1N=C(c2ccccc2)c2cc(C#CCCCC(=O)NO)ccc2N(C)C1=O | KG-1a | apoptosis, flow cytometry | 48 h | 1.4 to 2.1 µM |
| CNC(=O)c1cc(Oc2ccc(NC(=O)c3ccc(-c4ccccc4OC(=O)CCC(=O)OC4OC5OC6(C)CCC7C(C)CCC(C4C)C57OO6)cn3)cc2)ccn1 (centres unmarked) | Huh-7 | cell growth or viability, MTT | 72 h | 5.83 µM |
| COc1ccc(C(c2c(C)nn(-c3ccccc3)c2O)c2c(C)nn(-c3ccccc3)c2O)cc1OC | various human cancer cell lines | cell growth, MTT |  | 5.45 to 18.3 µM |
| CNC(=O)c1cc(Oc2ccc(NC(=O)c3cc(-c4ccccc4OC(=O)CCC(=O)OC4OC5OC6(C)CCC7C(C)CCC(C4C)C57OO6)ccn3)cc2)ccn1 (centres unmarked) | Hep3B | cell growth or viability, MTT | 72 h | 6.15 µM |
| [Cl][Ag].[Se]=c1n(C2CCCCC2)ccn1C1CCCCC1 | A-375 | cell growth or viability, MTT | 72 h | 1.1 µM |
| C=C(C(=O)O)[C@@H]1CC[C@@]2(C)CCC(=O)C(C)=C2C1 | human Neutrophil | superoxide release, inhibitor, absorbance |  | > 10 µM |
| CNC(=O)c1cc(Oc2ccc(NC(=O)c3ccc(-c4ccc(COC(=O)CCC(=O)OC5OC6OC7(C)CCC8C(C)CCC(C5C)C68OO7)cc4)cn3)cc2)ccn1 (centres unmarked) | Hep3B | cell growth or viability, MTT | 72 h | 9.88 µM |
| CC[C@H](C)[C@H](NC(=O)CNC(=O)[C@H](C)NC(=O)[C@@H]1CCCN1C(=O)CNC(=O)[C@H](C)NC(=O)[C@H](CCC(=O)O)NC(=O)[C@H](C)NC(=O)[C@H](CC(=O)O)NC(=O)[C@H](C)NC(=O)[C@H](CCC(=O)O)NC(=O)[C@H](C)NC(=O)[C@H](CCC(=O)O)NC(=O)[C@@H]1CCCN1C(=O)[C@@H](N)CCC(=O)O)C(=O)NCC(=O)N[C@@H](C)C(=O)N[C@H](C(=O)N[C@@H](CC(C)C)C(=O)N[C@@H](CCCCN)C(=O)N[C@H](C(=O)N[C@@H](CC(C)C)C(=O)N[C@H](C(=O)N[C@H](C(=O)NCC(=O)N[C@@H](CC(C)C)C(=O)N1CCC[C@H]1C(=O)N[C@@H](C)C(=O)N[C@@H](CC(C)C)C(=O)N[C@H](C(=O)N[C@@H](CO)C(=O)N[C@@H](Cc1c[nH]c2ccccc12)C(=O)N[C@H](C(=O)N[C@@H](CCCCN)C(=O)N[C@@H](CCCNC(=N)N)C(=O)N[C@@H](CCCCN)C(=O)N[C@@H](CCCNC(=N)N)C(=O)N[C@@H](CCC(N)=O)C(=O)N[C@@H](CCC(N)=O)C(N)=O)[C@@H](C)CC)[C@@H](C)CC)[C@@H](C)O)[C@@H](C)O)C(C)C)C(C)C | MCF7 FAP-transfected | cell viability, MTT | 72 h | 5.2 ± 0.4 µM |
| O=C(Cc1ccc2ccccc2c1)N[C@H](Cc1ccc(OP(=O)(O)O)cc1)C(=O)N[C@H](Cc1ccccc1)C(=O)N[C@H](Cc1ccccc1)C(=O)N[C@H](Cc1ccc(OP(=O)(O)O)cc1)C(=O)O | SAOS-2 | cell growth or viability, MTT |  | 338 µg/mL |
